Assay results pooled from the literature.
A part holds a random share of what one study measured.

Block 1
Target: Histone acetyltransferase KAT6A, winged helix 2, GST fusion (KAT6A, Homo sapiens, UniProt Q92794, residues 85-181)
Technique: protein binding microarray
Molecule type: double-stranded DNA, one strand shown
Sample: in vitro
Concentration: not given
Setting: 8-mer, flanks averaged, mean of 2 arrays, mostly near background
Reference: not given
Direction: higher = stronger binding
Construct (chain): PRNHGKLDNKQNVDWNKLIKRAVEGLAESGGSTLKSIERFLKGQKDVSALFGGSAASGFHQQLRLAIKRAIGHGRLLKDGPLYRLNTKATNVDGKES
Oligonucleotide	E-score
CCGTATCC	0.0875
GGCGGCAC	0.156
GTCCTCTA	-0.15
AGATTAAG	-0.0514
ATCGTCCC	-0.00779
ACGTGTCG	-0.209
CAATAGCA	-0.174
AATATCCC	0.0108
AACGTACA	-0.157
ATAAGACG	-0.279
CATGAGAG	-0.0484
GATAGACA	-0.122
ATTGCGGG	0.0112

Block 2
Target: Fragile X messenger ribonucleoprotein 1, C-terminal low-complexity region (Fmr1, Mus musculus, UniProt P35922)
Technique: RNA Bind-n-Seq
Molecule type: RNA
Sample: in vitro
Concentration: 200 nM
Setting: whole 134-nt RNA, ends assumed
With: 150 mM LiCl
Reference: input library
Direction: higher = stronger binding
Library: 7-deaza-guanosine replaces G
Oligonucleotide	log2 enrichment
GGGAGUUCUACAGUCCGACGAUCCAAGUCCUGUGCUACACAUCGUAUGUACCGAAUCGGAGGUUUUUGGAAAAAAAGGAAAGUAUUAUGUUACGCCGUUCGGAUCUGCACUUCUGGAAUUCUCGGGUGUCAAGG	-0.845
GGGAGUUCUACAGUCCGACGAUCGCAGGUAGUAAAAACAAAUGGAAAUGCUUCGGAUAGUGGCAGGGGUGGGGGUUGCUAAGGAAAGGGUGGGAUGGGAGUGGGUAAAGAGUUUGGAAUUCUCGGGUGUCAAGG	1.57
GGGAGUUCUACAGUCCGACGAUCUGAAAUGUUUUUUUCUCUGUCUUCUUUCAGGUCUUUGUUGAGUAUGCAAAUGCUGGUGAUUCCAAAGCUGCGCAGAAAUUACUGACUGGAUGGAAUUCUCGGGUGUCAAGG	-1.95
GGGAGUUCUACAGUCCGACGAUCUAACUUUAGAGUAGGAUCUGAUGGAUAUGGCAGUGGACGUGGAUUUGGGGAUGGCUAUAAUGGGUAUGGAGGAGGACCUGGAGGUGGCAAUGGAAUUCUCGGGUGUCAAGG	-0.0145
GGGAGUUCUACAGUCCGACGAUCAAGUCCUGUGCUACACAUCGUAUGUACCGAAUCGGUUUUGGUUUUGGGGUUUUGGGAAAGUAUUAUGUUACGCCGUUCGGAUCUGCACUUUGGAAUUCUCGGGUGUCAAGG	-1.75
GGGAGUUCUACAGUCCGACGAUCUACCCUCGUGCCCCUGUUUUUCCUGGCCGUGGUAGUUACUCAAACAGAGGGAACUACAACAGAGGUGGAAUGCCCAACAGAGGGAACUACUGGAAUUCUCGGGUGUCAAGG	-1.28

Block 3
Target: UBE2S UBC core domain (UniProt Q16763)
Technique: yeast two-hybrid
Sample: yeast
Setting: mostly zero background
Reference: not given
Direction: higher = stronger interaction
B1: PEX2 RING domain (UniProt P28328); chain DNTLATSGKECALCGEWPTMPHTIGCEHIFCYFCAKSSFLFDVYFTCPKCGTEVHSLQPLK
B2: RNF4 RING domain (UniProt P78317); chain TGLRPSGTVSCPICMDGYSEIVQNGRLIVSTECGHVFCSQCLRDSLKNANTCPTCRKKINHKRYHP
B3: TRIM52 RING domain (UniProt Q96A61); chain PMQTLQEEAVCAICLDYFKDPVSISCGHNFCRGCVTQLWSKEDEEDQNEEEDEWEEEEDEEAV
B4: PHF7 RING domain (UniProt Q9BWX1); chain IQHGHVGEESCILCCEDLSQQSVENIQSPCCSQAIYHRKCIQKYAHTSAKHFFKCPQCNNRKEFPQEML
B5: TRIM38 RING domain (UniProt O00635); chain STKKMMEEATCSICLSLMTNPVSINCGHSYCHLCITDFFKNPSQKQLRQETFCCPQCRAPFHMDSLRP
Target sequence (chain): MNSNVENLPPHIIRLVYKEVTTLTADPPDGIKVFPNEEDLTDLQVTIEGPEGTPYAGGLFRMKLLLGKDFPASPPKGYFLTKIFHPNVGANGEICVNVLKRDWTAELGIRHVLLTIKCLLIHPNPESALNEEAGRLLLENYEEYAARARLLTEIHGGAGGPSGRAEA
Sequence	lacZ reporter activity
ISNDSETLEECMVCSDMKRDTLFGPCGHIATCSLCSPRVKKCLICKEQVQSRTKIE (MIB1 RING domain (UniProt Q86YT6))	0
B1 (PEX2 RING domain)	0
LKQVSIRENCCSLCCDEVADTQLKPCGHSDLCMDCALQLETCPLCRKEIVSRIRQI (RSPRY1 RING domain (UniProt Q96DX4))	0
B2 (RNF4 RING domain)	0
B3 (TRIM52 RING domain)	0
B4 (PHF7 RING domain)	0
B5 (TRIM38 RING domain)	0

Block 4
Target: RING finger protein unkempt homolog, zinc fingers 1-6, GST-SBP tag (UNK, Homo sapiens, UniProt Q9C0B0, residues 30-357)
Sequence of UniProt Q9C0B0 (30-357, looked up): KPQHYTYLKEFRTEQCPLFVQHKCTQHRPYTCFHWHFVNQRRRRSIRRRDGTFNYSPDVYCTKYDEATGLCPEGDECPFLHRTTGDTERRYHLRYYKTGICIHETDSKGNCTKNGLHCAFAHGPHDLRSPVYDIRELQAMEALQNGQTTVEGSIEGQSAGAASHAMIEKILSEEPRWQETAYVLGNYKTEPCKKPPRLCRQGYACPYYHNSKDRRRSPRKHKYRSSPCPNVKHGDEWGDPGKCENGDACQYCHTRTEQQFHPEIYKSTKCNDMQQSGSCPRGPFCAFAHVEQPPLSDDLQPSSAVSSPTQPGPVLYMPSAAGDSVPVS
Technique: RNA Bind-n-Seq
Molecule type: RNA
Sample: in vitro
Concentration: not given
Setting: RNA with constant flanks, human-mouse chimeric sites, ends assumed
Reference: input RNA pool
Direction: higher = stronger binding
Oligonucleotide	bound/input enrichment [ratio]
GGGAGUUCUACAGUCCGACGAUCCCUCUGCCCCGCUCUGCAGCCUGGGGACACUGGGCUGCAUUUUUUUUCCAGCUUUCUUUUAAAACUCUCAGUGUAACUGUAUCCCGUGACAUUUCAUUUUUUUUAAAUAGUGUAUUUUUUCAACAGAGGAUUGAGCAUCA	6.12
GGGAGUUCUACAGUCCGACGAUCUCCCAAAUUAUAAGGCAAGAAGGAGCCUUGAGACAAACACUCCACACACAGGGAAGGCGAUAACAUUGUACAUUGGUUUACAUUUUUCUCCUUGAAUGAUUUUUCUAGAGGUCAUAGUGCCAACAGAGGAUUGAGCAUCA	0.461
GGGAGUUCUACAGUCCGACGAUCUUAAUCCCCUUUACUGCUCCCCCACUUCUCAUGGUAAUAACAAAGUCUUAUAUCCCCGUCCUAGCUUUCACUCAGAUGGCUUAUGGAGCCGGUUUCCUAUCUUUCUUGGGUGGGAUCAGACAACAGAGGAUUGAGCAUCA	0.303
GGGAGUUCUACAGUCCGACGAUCUACUCAACUUUCUUGCCACAUUUUGAAUUCCAAGAUGUUAUUCCUCCAGAUGACUUCCUAACUAGUGAUGAAGAGCAAGAUUUGGUUUUAUUUGGAACUAUGAGAGGACAAGUUGUUGGACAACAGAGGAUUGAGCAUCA	0.322
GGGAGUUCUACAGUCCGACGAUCUAUAAUAAUCAUGAAAUUCGUUCCGGGAAGCACAUUGGUGUCUGCAUCUCAGUUGCCAACAAUAGGCUUUUUGUGGGCUCUAUUCCUAAGAGUAAAACCAAGGAGCAGAUUCUUGAAGAACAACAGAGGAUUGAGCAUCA	0.695
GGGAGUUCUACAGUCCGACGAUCAAAGAUCUACUGAGGCAAGGCAGCAAAUUUAGGAGAGACAUUUCAACAAUAUUGAUAGAGUUAGGAUUCCAAAUUAAAAAGAAAACUAAAAGAUUGUACAUCAACAAAGCCAAUGUGUGGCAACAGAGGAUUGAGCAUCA	2.55
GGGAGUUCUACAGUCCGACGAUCGCACUUGGGAAUGUAAUCAGCGCCUUGGGGGACAAGAGCAAGAGAGCCACCCAUGUCCCUUACAGAGACUCUAAGCUAACAAGACUAUUGCAGGAUUCCCUUGGGGGUAACAGCCAAACCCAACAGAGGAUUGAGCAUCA	0.196

A few entries again (block 2):
Oligonucleotide	log2 enrichment
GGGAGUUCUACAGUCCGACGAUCCAAGUCCUGUGCUACACAUCGUAUGUACCGAAUCGGAGGUUUUUGGAAAAAAAGGAAAGUAUUAUGUUACGCCGUUCGGAUCUGCACUUCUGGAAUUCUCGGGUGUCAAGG	-0.845
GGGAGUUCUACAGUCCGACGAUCGCAGGUAGUAAAAACAAAUGGAAAUGCUUCGGAUAGUGGCAGGGGUGGGGGUUGCUAAGGAAAGGGUGGGAUGGGAGUGGGUAAAGAGUUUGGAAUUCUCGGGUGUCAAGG	1.57
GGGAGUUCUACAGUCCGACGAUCUGAAAUGUUUUUUUCUCUGUCUUCUUUCAGGUCUUUGUUGAGUAUGCAAAUGCUGGUGAUUCCAAAGCUGCGCAGAAAUUACUGACUGGAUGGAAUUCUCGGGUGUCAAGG	-1.95
